Measurements collected from several papers.
Every numbered part comes from another study and shows a few of its results, in no order.

Block 1
Target: Histone acetyltransferase KAT6A, both winged helices, GST fusion (KAT6A, Homo sapiens, UniProt Q92794, residues 1-181)
Method: protein binding microarray
Form: double-stranded DNA, one strand shown
Matrix: in vitro
Concentration: not given
Notes: 8-mer, flanks averaged, mean of 2 arrays, mostly near background
Relative to: not given
Direction: higher = stronger binding
Quantity: E-score
Target sequence (chain): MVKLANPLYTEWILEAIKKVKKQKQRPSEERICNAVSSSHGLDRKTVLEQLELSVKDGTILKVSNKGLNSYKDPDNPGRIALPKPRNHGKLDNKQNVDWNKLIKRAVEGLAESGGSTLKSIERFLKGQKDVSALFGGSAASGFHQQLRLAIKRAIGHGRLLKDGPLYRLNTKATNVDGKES
Oligonucleotide = GCGCGACA; result = 0.295
Oligonucleotide = CTTTAGTC; result = -0.114
Oligonucleotide = CATAAGCG; result = 0.156
Oligonucleotide = ATATCTAG; result = -0.0971

Block 2
Target: Interferon regulatory factor 7, full length, phosphomimetic (IRF7, Homo sapiens, UniProt Q92985, residues 1-503, S471D/S472D/S475D/S476D/S477D/S483D/S484D/S487D)
Method: protein-binding microarray
Form: double-stranded DNA, one strand shown
Matrix: in vitro
Concentration: 2200 nM top
Notes: 60-bp whole probe
Together with: salmon DNA 0.4 mg/ml
Relative to: random background probes
Direction: higher = stronger binding
Quantity: fitted relative affinity
All sequences stand within: GCCTAGCAC … GTCTTGATTCGCTTGACGCTGCTG
Construct (chain): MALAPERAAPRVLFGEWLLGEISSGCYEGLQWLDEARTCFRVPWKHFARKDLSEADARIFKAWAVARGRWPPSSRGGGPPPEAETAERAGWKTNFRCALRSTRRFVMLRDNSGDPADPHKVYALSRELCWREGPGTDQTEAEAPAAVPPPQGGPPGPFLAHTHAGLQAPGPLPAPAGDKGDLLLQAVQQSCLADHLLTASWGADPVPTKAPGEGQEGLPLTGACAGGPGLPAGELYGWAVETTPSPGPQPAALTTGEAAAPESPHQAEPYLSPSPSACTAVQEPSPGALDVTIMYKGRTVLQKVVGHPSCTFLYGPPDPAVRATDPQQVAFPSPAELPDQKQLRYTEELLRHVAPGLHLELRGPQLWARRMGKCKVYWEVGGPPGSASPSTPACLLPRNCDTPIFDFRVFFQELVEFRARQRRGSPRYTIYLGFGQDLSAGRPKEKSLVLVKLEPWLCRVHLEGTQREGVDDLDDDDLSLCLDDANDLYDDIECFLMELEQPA
Oligonucleotide = CCATCTCTGCTCCTTCTGACAGTGCTA; result = 1.57 z-score
Oligonucleotide = TAGTTTTACTTTCTATGTCTGTGCTAG; result = 4.69 z-score
Oligonucleotide = TTAGGTATCGACTATAGGTTAGTGCTA; result = -0.112 z-score
Oligonucleotide = TTAGGTATCCTGCTCCTTTAGTGCTAG; result = 1 z-score
Oligonucleotide = TCAAGTTTACCCATCTCCAGGTGCTAG; result = 0.687 z-score

Block 3
Target: TATA-box-binding protein 1 (TBP1, Arabidopsis thaliana, UniProt P28147, residues 1-200, full length assumed)
Method: protein-binding microarray
Form: double-stranded DNA, one strand shown
Matrix: in vitro
Concentration: not given
Notes: k-mer, scored over probes, only values ≥0.25
Direction: higher = stronger binding
Quantity: E-score
Construct (chain): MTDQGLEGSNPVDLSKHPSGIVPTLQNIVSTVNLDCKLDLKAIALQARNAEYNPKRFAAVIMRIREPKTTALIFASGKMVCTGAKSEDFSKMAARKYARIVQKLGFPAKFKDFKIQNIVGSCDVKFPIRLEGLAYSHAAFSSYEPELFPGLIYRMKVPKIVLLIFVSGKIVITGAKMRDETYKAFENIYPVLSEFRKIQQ
Oligonucleotide = AAATTAA; result = 0.328
Oligonucleotide = GTAGTTA; result = 0.274
Oligonucleotide = AAAAACT; result = 0.339
Oligonucleotide = AATCTTA; result = 0.29
Oligonucleotide = TAAACTA; result = 0.274

Other studies, line by line
Molecule = PhoQ, residues 284 288 289 292 302 303 SLSVQF; target = PhoP, residues 12 14 15 18 19 AWHSL (Escherichia coli, UniProt P23836); assay = Sort-seq, measured: YFP reporter; system = E. coli; conditions = PhoQ-PhoP variant library, together with: 10 µM Mg2+; how to read = relative to: high Mg2+ state, higher = stronger signaling; quantity = fold induction; result = 4.44

Excerpt of the above (block 3):
Oligonucleotide = TAAACTA; result = 0.274
